Results pooled from the literature.
Parts stem from different laboratories: compare values within a part only. Changes are numbered by the printed parent chain.

Study 1
Target: CCNB3, cyclin fold, Cln2 fusion (human)
Technique: yeast growth competition, sequencing
Matrix: yeast
Setting: weak parent motif
Baseline: not given
Direction: higher = stronger binding
Starting sequence: DBF4 docking peptide (human); DDIVSKLVFDFVE; partner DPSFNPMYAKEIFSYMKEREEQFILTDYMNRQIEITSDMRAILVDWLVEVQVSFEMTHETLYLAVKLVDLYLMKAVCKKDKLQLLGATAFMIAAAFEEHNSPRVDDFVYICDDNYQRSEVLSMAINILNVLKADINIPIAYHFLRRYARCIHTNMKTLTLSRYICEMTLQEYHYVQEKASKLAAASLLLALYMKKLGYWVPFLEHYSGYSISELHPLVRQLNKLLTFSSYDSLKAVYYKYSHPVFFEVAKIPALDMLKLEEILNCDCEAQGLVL
Under “normalised enrichment score”, `S5A` is recorded as -0.241.
For `D1A`, “normalised enrichment score” read 0.317.
For `E13A`, “normalised enrichment score” read 0.43.
For `V8A`, “normalised enrichment score” read 0.119.
`D10A`: “normalised enrichment score” 0.303.
`F11A` — result for “normalised enrichment score”: 0.0999.
For `F9A`, “normalised enrichment score” read -0.0866.

Study 2
Target: Interferon regulatory factor 5, full length, phosphomimetic (IRF5, Homo sapiens, UniProt Q13568-2, residues 1-514, K96S/S451D/S453D/S456D/S462D)
Technique: protein-binding microarray
Molecule type: double-stranded DNA, one strand shown
Matrix: in vitro
Tested at: 250 nM
Setting: 60-bp whole probe
Added: salmon DNA 0.4 mg/ml
Baseline: random background probes
Direction: higher = stronger binding
All sequences stand within: GCCTAGCAC … GTCTTGATTCGCTTGACGCTGCTG
`TCACCCCTCTCTTTCCAACTGTGCTAG` gave a log fluorescence of 0.181 z-score.
For `TTAGGACAGGGTCTCGGTTAGTGCTAG`, the log fluorescence was 0.00981 z-score.
`GACGTTATCAGTCTCGAGACGTGCTAG` gave a log fluorescence of 1.23 z-score.
The log fluorescence of `TTATAACTGGGGACTGGATTAGTGCTA` is reported as 0.259 z-score.
`TAAGATATCAGTTTCGATTAGTGCTAG` gave a log fluorescence of 9.86 z-score.
For `TACTGGACTGGGGTTTCCCGGTGCTAG`, the log fluorescence was -0.327 z-score.
With `TTAGTACTGCTTTTCCTTTAGTGCTAG` the log fluorescence was 0.737 z-score.
`TTAGGTTTCGACTACCGGTTAGTGCTA` gave a log fluorescence of 7.8 z-score.
For `GACGGTTTCCTTTCCCAGACGTGCTAG`, the log fluorescence was 0.841 z-score.
With `TTAGGCCTGGGGACTGGGTTAGTGCTA` the log fluorescence was -0.51 z-score.
With `GACGGTTTCCTTTTCGTGACGTGCTAG` the log fluorescence was 1.4 z-score.
`TCATCTCTCAAAAGTCACACTGTGCTA` gave a log fluorescence of 0.302 z-score.
`GTCGGTATCGGGTATCGGGACGTGCTA` has a log fluorescence of 4.92 z-score.
`TTCGGACTGGGGACTGGGTTAGTGCTA` gave a log fluorescence of -0.22 z-score.
With `TTAGGTGTCGGGACTGGGTTAGTGCTA` the log fluorescence was -0.246 z-score.
With `TCAAGTCTGGGAGATGAAACTGTGCTA` the log fluorescence was -0.0169 z-score.
For `TTGGGTTTCGGGTATCGGTTAGTGCTA`, the log fluorescence was 8.7 z-score.
For `TCAGGTTCCGGTTTCGGTTAGTGCTAG`, the log fluorescence was 9.57 z-score.
With `CTGAGTCCCTATCTCCTCACGTGCTAG` the log fluorescence was -0.342 z-score.
The log fluorescence of `TTAGATCTCAGTCTAGATTAGTGCTAG` is reported as 0.0572 z-score.
`TTAGAACTGGGGACTCGATTAGTGCTA` has a log fluorescence of -0.101 z-score.
`ATAGATTTCGGGACTGGATTAGTGCTA` has a log fluorescence of 2.12 z-score.
With `TTAGGTTCCGGTTTCGGATAGTGCTAG` the log fluorescence was 6.47 z-score.
`GACGGACTGTACTATCGGGACGTGCTA` has a log fluorescence of 1.49 z-score.
`GGATTTCAGTTTCTCTTTCCGTGCTAG` gave a log fluorescence of 6.49 z-score.

Study 3
Target: RNA binding protein fox-1 homolog 2, RRM domain, GST-SBP tag (RBFOX2, Homo sapiens, UniProt O43251-10, residues 100-194)
Technique: RNA Bind-n-Seq
Molecule type: RNA
Matrix: in vitro
Tested at: 365 nM
Setting: natural RNA segment, single round, ends assumed
Baseline: no-protein control
Direction: higher = stronger binding
All sequences stand within: GGGAGUUCUACAGUCCGACGAUC … UGGAAUUCUCGGGUGCCAA
Target sequence (chain): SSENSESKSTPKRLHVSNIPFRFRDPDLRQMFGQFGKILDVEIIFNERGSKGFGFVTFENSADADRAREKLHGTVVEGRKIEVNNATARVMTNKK
`CAUCUCUUAUAGGAAUCAAAGUUUAUUAAAGUUACAUAGAGGAUUGAAAAAUGUAUAUCACUCAAUUUUUAUCUAAGAAGGAUAGGUUAUAAAGGGAGGUACCUAAAUAC` — result for “RBNS enrichment (R)”: 1.1.
`AAGUCUGAGAGACAGAGUUACUUAGACAAAUGACACUGAAGCAGAUUAGAAGCUAGUAUCACCCAUUGGGAUUGGCAAUGCCUUCAAAGGCUCCUAGUCAAAUGAUCCAA`: “RBNS enrichment (R)” 0.498.
Under “RBNS enrichment (R)”, `UUUCCAUAGUAUCACAUACUAUUAUUUAGUUGUUUACAAGACUCCAAUUUGAAUUCAGGAUUACAGUGCUCCUUUCAUUCUUUCAAACAGAUAACAUAAAAGUUCUGUUA` is recorded as 0.34.
`AAAACCAAAACCAAACCAAAGUUCUUUGUUUUGCCUGGUUACGACAUUCAGUUUAUCUGUGUAAAUAUUAUGAUUUUUUUUGUUUUGUUUUCUCUUUAGAAUUUUGUUAA`: “RBNS enrichment (R)” 1.04.
`AGCGACUGAAUCUGCCACUCUCAGAAUAAGUUCCUUGCAUUUAUUCCAAAUAAUCUCGUUUACUCUCACCUGUUUAUGCAAAUUGUAUAAGGUUUCUUAUGCCCAAGCUU`: “RBNS enrichment (R)” 0.905.
Under “RBNS enrichment (R)”, `CUUCCUGGCUUGAGAACAGCCCUGCUACCCUUUUUGAGCCGAAAUUUUGAAGUGGAUGCCCGUCUUGCCAGAAACGCUGUUCUCUCCAGAAUGCCCCUCCCUGCACUGGA` is recorded as 1.19.
For `UUCCUUGGAACAUGUAAGAACUGUGCAGUAGCCAUUUAUGGUUUAAAGUAAACAGGCCAGAUGAACCUGAGGGAUAAUAGAUUACAAAGAAUAUAUUUUUGUUAUGGCUG`, “RBNS enrichment (R)” read 0.277.
`GAUAACGACAAUUACCAAGGAAACUGUGCUGAGGAAGAGCAGUCUGGCUGGUGGUUUAACAGGUGUCACUCUGCAAACCUGAACGGUGUUUACUACCGUGGUUCCUACAG` — result for “RBNS enrichment (R)”: 0.392.
Under “RBNS enrichment (R)”, `GUGCCCCAAGUACAGAUGCCAUUACUUCUGCUUUCGUAUCUCCUCAGGCAAAAGUGGAGGGUGCCUUAUGGGCCCUCCUCAUAGGUUGUCUCUGCAUACACGAACCUAAC` is recorded as 0.358.
`CAAAUCCACCCUCCUUGUGGGGAAGAUGGUAAUAUGGGACCAAGAGCAGCAAACGUGCUCACCUGGUGUCUUGGAGCCCAGCCUCCUGCUGAGGUUGGGGGCUCUGCCAU`: “RBNS enrichment (R)” 0.293.
For `AUUCCACCACAAAAAGAGACCCUGAAUAAGAAGAGCAGUUUUCCUGUGCAUAUAGAGGGUGUGUCAAAGGUGAGCUUUUUGGGGACCGGGAAAAACAAAGUUGCCUGAUU`, “RBNS enrichment (R)” read 3.95.
`UUCCCUCCCCCUGCCUCUUCUGGGUUGGUCACCCCAUAGGACAGCCACAGGACAGUCACUAGCACCUACUGGAAACCUCUUUGUGGGAACAUGAAGAAAGAGCCUUUGGG`: “RBNS enrichment (R)” 0.372.

Study 4
Target: Prothrombin, mature alpha-thrombin (F2, Homo sapiens, UniProt P00734)
Technique: aptamer microarray, sandwich
Molecule type: DNA with 2'F-ANA
Matrix: in vitro
Tested at: 200 nM
Setting: whole 15-mer aptamer, many near background
Added: Cy3 exosite-II aptamer, 400 nM
Direction: higher = stronger binding
Oligonucleotide: GGTTGGTGTGGTTGG
Under “mean fluorescence intensity”, `2'F-ANA at 1 2 4 5 6 7 9 11` is recorded as 53.5 a.u.
`2'F-ANA at 1 3 4 6 7 15`: “mean fluorescence intensity” 223 a.u.
`2'F-ANA at 1 3 5 6 8 10 12 14 15`: “mean fluorescence intensity” 48.6 a.u.
For `2'F-ANA at 1 3 4 5 7 8 10 15`, “mean fluorescence intensity” read 50.4 a.u.
Under “mean fluorescence intensity”, `2'F-ANA at 3 6 8 9 10 12 13 15` is recorded as 401 a.u.
For `2'F-ANA at 1 2 4 5 6 7 8 9 11 12 13 14`, “mean fluorescence intensity” read 54.6 a.u.
For `2'F-ANA at 3 6 10 13 15`, “mean fluorescence intensity” read 456 a.u.
For `2'F-ANA at 1 2 4 6 11 15`, “mean fluorescence intensity” read 91.4 a.u.
`2'F-ANA at 4 7 10 11 12 13 14 15` — result for “mean fluorescence intensity”: 60.5 a.u.
For `2'F-ANA at 1 2 3 5 6 12 13`, “mean fluorescence intensity” read 89.4 a.u.
`2'F-ANA at 2 4 9 10 11 12 14 15`: “mean fluorescence intensity” 74.2 a.u.
Under “mean fluorescence intensity”, `2'F-ANA at 2 6 8 9 10 13 15` is recorded as 149 a.u.
For `2'F-ANA at 1 3 4 6 7 8 10 13 14`, “mean fluorescence intensity” read 52.1 a.u.
`2'F-ANA at 1 3 4 5 7 12 13 14 15`: “mean fluorescence intensity” 70.1 a.u.
Under “mean fluorescence intensity”, `2'F-ANA at 1 3 4 5 8 9 10 15` is recorded as 45.2 a.u.
For `2'F-ANA at 2 5 13`, “mean fluorescence intensity” read 54.4 a.u.
For `2'F-ANA at 1 10 12 13 15`, “mean fluorescence intensity” read 75.8 a.u.

Study 5
Target: Histone acetyltransferase KAT6A, winged helix 2, GST fusion (KAT6A, Homo sapiens, UniProt Q92794, residues 85-181)
Technique: protein binding microarray
Molecule type: double-stranded DNA, one strand shown
Matrix: in vitro
Tested at: not given
Setting: 8-mer, flanks averaged, mean of 2 arrays, mostly near background
Baseline: not given
Direction: higher = stronger binding
Residues (chain): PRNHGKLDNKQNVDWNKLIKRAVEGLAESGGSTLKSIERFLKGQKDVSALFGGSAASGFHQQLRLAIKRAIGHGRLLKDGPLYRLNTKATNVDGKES
`ATGTGTAA` has an E-score of -0.17.
`GGATAGCA` gave an E-score of 0.147.
With `CATCCTCG` the E-score was 0.146.
The E-score of `GTCTCCTA` is reported as -0.187.
With `CGACAGGC` the E-score was 0.107.
For `ACGTGCGA`, the E-score was -0.116.
The E-score of `CTCGGCAA` is reported as 0.037.
With `ACCCGGGC` the E-score was 0.156.
With `ATCTAAGG` the E-score was 0.0302.
`ATCTGTAC` gave an E-score of -0.127.
`CTCCTGGC` gave an E-score of 0.0647.
`GGTACGCA` gave an E-score of 0.0172.
For `TCCCGCCA`, the E-score was 0.0579.
With `AGGGAGCC` the E-score was -0.0283.
`CGATGGTA` gave an E-score of -0.232.
The E-score of `CGGGTCAG` is reported as 0.198.
For `CAAACGTC`, the E-score was -0.0699.
With `AGTTTCTC` the E-score was 0.0812.
For `GTGATGGA`, the E-score was -0.0408.
With `TACGATGA` the E-score was -0.00166.
With `CTTATTGA` the E-score was -0.0731.
`GCCGTGGA` gave an E-score of -0.0762.
With `GCATGAGC` the E-score was 0.0416.
The E-score of `CCAATTAG` is reported as 0.108.
For `CGTTCGCC`, the E-score was -0.0674.

Some of these lines once more (study 2):
`GGATTTCAGTTTCTCTTTCCGTGCTAG` gave a log fluorescence of 6.49 z-score.
For `TCAGGTTCCGGTTTCGGTTAGTGCTAG`, the log fluorescence was 9.57 z-score.
With `TTAGGTGTCGGGACTGGGTTAGTGCTA` the log fluorescence was -0.246 z-score.
`TTCGGACTGGGGACTGGGTTAGTGCTA` gave a log fluorescence of -0.22 z-score.
`GTCGGTATCGGGTATCGGGACGTGCTA` has a log fluorescence of 4.92 z-score.
With `TTAGGCCTGGGGACTGGGTTAGTGCTA` the log fluorescence was -0.51 z-score.
`TCACCCCTCTCTTTCCAACTGTGCTAG` gave a log fluorescence of 0.181 z-score.
